# Results collected from several papers.
# Each line is one published result; not all experiments were run side by side. ± gives the spread as reported.
# Organism: Leishmania infantum
SMILES,assay,system,conditions,EC50
Cc1ncnc2c1c(C1=CCSCC1)cn2[C@@H]1O[C@H](CO)[C@@H](O)[C@H]1O,"parasite growth, imaging",mouse Macrophage,"5 days, intracellular, amastigote",6.96 µM
CCNC1=C(Cl)C(=O)c2cc3c(cc2C1=O)CCCC3(C)C,,"intracellular amastigotes, ex vivo mouse splenic explants",72 h,66.6 ± 3.3 µM
COc1cc(C2c3cc4c(cc3C(C(C)C)C3COC(=O)C23)OCO4)cc(OC)c1OC (centres unmarked),"intracellular amastigote growth, iRFP fluorescence",infected mouse splenocyte explants,48 h,> 100 µM
CC1(C)NC(N)=Nc2nc3ccccc3n21,parasite growth,,"72 h, promastigote",> 20 µM
COc1cc(COC(=O)C2C(C=O)=Cc3cc4c(cc3C2c2cc(OC)c(OC)c(OC)c2)OCO4)cc(OC)c1OC (centres unmarked),"intracellular amastigote growth, iRFP fluorescence",infected mouse splenocyte explants,48 h,10.2 ± 0.5 µM
CC1(C)NC(N)=Nc2nc3c(Cl)cc(Cl)cc3n21,parasite growth,,"72 h, promastigote",> 20 µM
CC(=O)Oc1cc(C)c(OC(C)=O)c2c1CC=C(CCC=C(C)C)C2,parasite growth,,"72 h, promastigote",10.9 µM
C=CCOC(=O)C1C(C=O)=Cc2cc3c(cc2C1c1cc(OC)c(OC)c(OC)c1)OCO3 (centres unmarked),"intracellular amastigote growth, iRFP fluorescence",infected mouse splenocyte explants,48 h,29.8 ± 1.6 µM
COC1=CC(=O)c2cc3c(cc2C1=O)CCCC3(C)C,parasite growth,,"72 h, promastigote",7.56 µM
COc1ccc2[nH]c(NC(=N)N)nc2c1,parasite growth,,"72 h, promastigote",> 20 µM
COc1cc([C@@H]2c3cc4c(cc3C=C(C=O)[C@H]2C(=O)N2CCCC2)OCO4)cc(OC)c1OC,parasite growth,,promastigote,> 100 µM
Cc1ncnc2c1c(C(F)(F)F)cn2[C@@H]1O[C@H](CO)[C@@H](O)[C@H]1O,"parasite growth, imaging",mouse Macrophage,"5 days, intracellular, amastigote",3.17 µM
Cc1cc2nc3n(c2cc1C)C(C)(C)NC(N)=N3,parasite growth,,"72 h, promastigote",> 20 µM
CC1(C)CCCc2cc3c(cc21)C(=O)C=CC3=O,parasite growth,,"72 h, promastigote",1.2 µM

# A few entries again:
SMILES,assay,system,conditions,EC50
CC1(C)CCCc2cc3c(cc21)C(=O)C=CC3=O,parasite growth,,"72 h, promastigote",1.2 µM
